Measured values collected from several papers.
Every numbered part comes from another study and shows a few of its results, in no order.

Study 1 — technique: RNA Bind-n-Seq; form: RNA; medium: in vitro; tested at: 365 nM; reference: no-protein control; reading: higher = stronger binding; endpoint: RBNS enrichment (R)
Target: RNA binding protein fox-1 homolog 2, RRM domain, GST-SBP tag (RBFOX2, Homo sapiens, UniProt O43251-10, residues 100-194)
Notes: natural RNA segment, single round, ends assumed
Constant ends, left off below: GGGAGUUCUACAGUCCGACGAUC … UGGAAUUCUCGGGUGCCAA
Construct (chain): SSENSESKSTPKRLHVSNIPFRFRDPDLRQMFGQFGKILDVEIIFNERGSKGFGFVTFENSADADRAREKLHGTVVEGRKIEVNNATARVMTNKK
Sequence = GGGUGGGGGGAAAUCACUGUUUGUUUUUAAAAGCAAAUCUUUUGUAAACAGAAUAAAAGUUCCUCUCCCUUCCCUUCCCUCACCCCUGAUAUGUACCCUUUCCACCCCUU; result = 0.282
Sequence = AUAAAAUAGUUUUCACAUUUUCAAUAUGCAAGUUUUGAAAAUGAGGAUUUGCCUGGACUUUUUUAUAUUUAAUGCUGGGAAACCUUCCUCAUAUUAACAACCCAUGUAUG; result = 4.68
Sequence = UGCAGUCAGAGCUGACUUGUAAACUAUUCUUGUAAUAGCUCAUUAUUUUGAAAGAUUUAUAUAUGAUGAAUUCUGGAUAUAUGACCAAUAAAACUGAUGAAGCAAAACCU; result = 0.359
Sequence = AUAAACAUCACUGCACUGUGACUGGUGGGGAAAACUGACAGCUUCCUGUUUGUACACAUUUGACAUUGGCUGUUAUAAUAUAUGGUCCUCAGUUGGGGAAGACACUUAGA; result = 0.606
Sequence = CCAAUGACAUAAAUACAUACAAGACACACAACUAAAAUGUCAUGUUAUUAACAGUUAUUAGGUUGUCAUUUAAAAAUAAAGUUCCUUUAUAUUUCUGUCCCAUCAGGAAA; result = 0.323
Sequence = AAUCUUCACUUAGCCUCAGACUUCAGGUGCAUUGACCCAUCCAUUAGUAAAGCUGCUUUGAACCAUCUUCUGGCCAUUGUGUCUUUUAUCUACUGGGAAUUGGAAUGGUG; result = 0.291
Sequence = ACCUGGCGCAGGCCUCCCAGGAGCUCCAGUGCAGCCCCAUCCCAGGAUGGGUGUCUGGGGAGGGUCAAGGGCUGGGGCUGAGCUUUAAAAUGGUUCCGACUUGUCCCUCU; result = 0.416
Sequence = UCUUGGUAUUAAAACACUUCUGUCCUGUGAGGUUUUCCCAAUGGUGUUUUUCUUGUAAAUGUGUUGGACAAAUGUGAAGAUGCGUUGUAGUUUACCCAUAUGCCCACAUU; result = 0.512

Study 2 — technique: protein-binding microarray; form: double-stranded DNA, one strand shown; medium: in vitro; tested at: 0.8 µM; notes: whole 60-bp probe, no competitor; reading: higher = stronger binding; endpoint: fluorescence intensity; constant ends, left off below: … GTCTTGATTCGCTTGACGCTGCTG
Target: Centromere-binding protein 1, full length, N-terminal tag (CBF1, Saccharomyces cerevisiae, UniProt P17106, residues 1-351)
Sequence of UniProt P17106 (whole entry, looked up): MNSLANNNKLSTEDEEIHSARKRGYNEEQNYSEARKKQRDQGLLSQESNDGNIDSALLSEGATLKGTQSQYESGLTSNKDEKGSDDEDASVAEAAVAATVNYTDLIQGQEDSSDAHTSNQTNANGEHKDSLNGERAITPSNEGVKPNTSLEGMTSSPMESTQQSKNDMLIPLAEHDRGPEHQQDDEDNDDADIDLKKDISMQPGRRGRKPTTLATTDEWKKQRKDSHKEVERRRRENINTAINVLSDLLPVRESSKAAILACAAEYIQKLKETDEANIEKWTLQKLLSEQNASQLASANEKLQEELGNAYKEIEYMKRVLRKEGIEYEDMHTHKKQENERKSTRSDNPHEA
Sequence = GAACGTTAAAACCAGAACGTGCACAATTTTTTTTAG; result = 786 a.u.
Sequence = CTATGTAACTATGATCACGGCTGCGTGCCGGGTTTC; result = 634 a.u.
Sequence = CTAAATAGGCTTTCTCTCGTGCTCGACCCCTAATTC; result = 535 a.u.
Sequence = CTATGAAAGAGCCATGGTCACGTTGGGCACATTTTC; result = 2390 a.u.
Sequence = GAATTCCATGTGTCTCGTGATACCTTAATTTCATAG; result = 3190 a.u.
Sequence = CTATTAACAATTGATAACGTGCCCTTTATTGAATTC; result = 1120 a.u.
Sequence = CTACAAATGGATCAAGGTGATGCTTATGCATAATTC; result = 515 a.u.
Sequence = CTATCGGAAGGTATTTAGGTGACCTTGCGGCTTTTC; result = 500 a.u.
Sequence = CTAGGGTGTGTTGGTGGTGCTTGCGGTACTTGTTTC; result = 521 a.u.
Sequence = GAAGAATCTTCTCGTCACGGAAGACCGTGCATTTAG; result = 535 a.u.
Sequence = GAAAATAGTGATCTGCACGGGTCTTGAGTAGAATAG; result = 619 a.u.
Sequence = CTAGCCCTCCTTCGGCACGCGGCTCGGAACATATTC; result = 527 a.u.
Sequence = CTAGTAAACGGAGAAGACGTGGTAGGACTCGCATTC; result = 486 a.u.
Sequence = GAAAAAAAAAAAAGATGCATGATGTATTTGGTATAG; result = 546 a.u.
Sequence = CTACGGTTTTCATATCATCACCCTCTGTTGTCCTTC; result = 557 a.u.
Sequence = CTAATGTACACATTTCTGCTGATGTGTTTTTTTTTC; result = 503 a.u.
Sequence = CTACCTTCTAAAGGTGACCCGCCTGATATGCGATTC; result = 540 a.u.

Study 3 — technique: RNA Bind-n-Seq; form: RNA; medium: in vitro; tested at: 200 nM; notes: whole 134-nt RNA, ends assumed; with: 150 mM LiCl; reference: input library; reading: higher = stronger binding; endpoint: log2 enrichment; each molecule: 7-deaza-guanosine replaces G
Target: Fragile X messenger ribonucleoprotein 1, C-terminal low-complexity region (Fmr1, Mus musculus, UniProt P35922)
Constant ends, left off below: GGGAGUUCUACAGUCCGACGAUC … UGGAAUUCUCGGGUGUCAAGG
Sequence = CUCAAGUCCUGUGCUACACAUCGUAUGUACCGAAUCGGUGGAAAGGUUUUUGGAAAGUAUUAUGUUACGCCGUUCGGAUCUGCACUUCCA; result = -0.111
Sequence = UAGUGAUGGUCCUAAAUAGCAUGAGUGUCAGCUGGAGCGCCCGGAUCCAGAUUUUCUUAACCUUUUGCAAGCUCACAGCAAUUCUGAUAA; result = -2.53
Sequence = AGUCCUGUGCUACACAUCGUAUGUACCGAAUCGGCCCCCGGGGCCCCCGGCCCCCGGGAAAGUAUUAUGUUACGCCGUUCGGAUCUGCAC; result = -2.68
Sequence = UCAAGUCCUGUGCUACACAUCGUAUGUACCGAAUCGGUUUUUUUGGAAAGGUGGAAAGUAUUAUGUUACGCCGUUCGGAUCUGCACUUCC; result = -0.549
Sequence = CAAGUCCUGUGCUACACAUCGUAUGUACCGAAUCGGCCCGGGCCCGGGGCCCGGGAAAGUAUUAUGUUACGCCGUUCGGAUCUGCACUUC; result = -1.75
Sequence = GUCCUGUGCUACACAUCGUAUGUACCGAAUCGGGUUUUUGGGAAAAAGGGUUUUUGGGAAAGUAUUAUGUUACGCCGUUCGGAUCUGCAC; result = -2.62
Sequence = GUCCUGUGCUACACAUCGUAUGUACCGAAUCGGGAAAAAAAGGGUUUGGGAAAAAGGGAAAGUAUUAUGUUACGCCGUUCGGAUCUGCAC; result = -2.34
Sequence = UCCUGUGCUACACAUCGUAUGUACCGAAUCGGGGUUUGGGGAAAAAAAGGGGUUUGGGGAAAGUAUUAUGUUACGCCGUUCGGAUCUGCA; result = -0.836

Study 4 — technique: protein binding microarray; form: double-stranded DNA, one strand shown; medium: in vitro; tested at: not given; reference: not given; reading: higher = stronger binding; endpoint: E-score
Target: Histone acetyltransferase KAT6A, winged helix 2, GST fusion (KAT6A, Homo sapiens, UniProt Q92794, residues 85-181)
Notes: 8-mer, flanks averaged, mean of 2 arrays, mostly near background
Construct (chain): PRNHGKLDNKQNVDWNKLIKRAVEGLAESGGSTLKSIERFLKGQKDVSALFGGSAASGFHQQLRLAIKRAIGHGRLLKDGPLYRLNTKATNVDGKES
Sequence = GGTACCAC; result = 0.11
Sequence = TAATTCTA; result = 0.0775
Sequence = GACATTCA; result = -0.017
Sequence = TCCAGCGA; result = 0.00407
Sequence = TCAGTAGA; result = -0.0187
Sequence = GCTCTCTA; result = 0.0248
Sequence = CAGTTGTA; result = -0.0631
Sequence = CCCTAGGG; result = 0.066
Sequence = AAAAGACT; result = -0.286
Sequence = CCCGGGAA; result = 0.164
Sequence = TCACTCCA; result = -0.17
Sequence = TGCGGGAA; result = 0.17
Sequence = AACTCTCT; result = -0.0688
Sequence = GATTACGA; result = -0.00712
Sequence = ATCCGGAC; result = 0.0379
Sequence = GAATCATA; result = 0.0309
Sequence = CTGGCGTA; result = 0.192
Sequence = AATAGACT; result = -0.214
Sequence = CAGGAAGC; result = 0.133
Sequence = AGCTTTGG; result = -0.131
